Measurements from different studies.
Every numbered part comes from another study and shows a few of its results, in no order. Substitutions count along the parent as printed.
Chain of UniProt P41143 (whole entry, looked up): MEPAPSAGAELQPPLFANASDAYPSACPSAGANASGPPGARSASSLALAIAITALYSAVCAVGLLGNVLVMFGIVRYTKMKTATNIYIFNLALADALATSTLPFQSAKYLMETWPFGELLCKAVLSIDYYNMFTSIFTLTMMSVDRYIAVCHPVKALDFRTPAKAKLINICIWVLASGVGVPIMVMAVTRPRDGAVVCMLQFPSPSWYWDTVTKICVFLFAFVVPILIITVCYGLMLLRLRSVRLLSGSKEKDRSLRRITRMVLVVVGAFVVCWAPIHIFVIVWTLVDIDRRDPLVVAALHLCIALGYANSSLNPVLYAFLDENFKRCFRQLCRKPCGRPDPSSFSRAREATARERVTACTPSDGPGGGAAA
Chain of UniProt Q01959 (whole entry, looked up): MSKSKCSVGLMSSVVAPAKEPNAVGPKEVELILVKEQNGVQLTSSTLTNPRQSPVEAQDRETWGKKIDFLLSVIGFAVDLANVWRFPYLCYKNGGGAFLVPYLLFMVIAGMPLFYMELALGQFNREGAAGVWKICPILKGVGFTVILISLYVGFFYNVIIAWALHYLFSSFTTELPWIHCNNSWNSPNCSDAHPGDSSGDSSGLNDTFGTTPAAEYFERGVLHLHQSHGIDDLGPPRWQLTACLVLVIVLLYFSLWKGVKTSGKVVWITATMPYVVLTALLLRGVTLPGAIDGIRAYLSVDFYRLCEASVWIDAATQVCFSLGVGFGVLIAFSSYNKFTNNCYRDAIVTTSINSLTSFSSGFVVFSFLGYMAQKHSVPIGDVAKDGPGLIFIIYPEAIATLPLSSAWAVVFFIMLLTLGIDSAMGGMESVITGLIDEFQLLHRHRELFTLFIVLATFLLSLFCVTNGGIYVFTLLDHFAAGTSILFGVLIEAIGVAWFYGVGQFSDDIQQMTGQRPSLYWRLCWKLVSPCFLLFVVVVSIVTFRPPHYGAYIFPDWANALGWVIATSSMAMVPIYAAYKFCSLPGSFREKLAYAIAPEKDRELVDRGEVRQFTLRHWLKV

Series 1
Target: tungstate, free oxyanion
Method: microfluidic competitive inhibition
Matrix: in vitro, cell-free expressed
Tested at: not given
Setting: derived from inhibition constants, unchanged parent 2230 nM
Direction: lower = stronger binding
Starting sequence: PafA, mature enzyme, eGFP fusion (Elizabethkingia meningoseptica, UniProt Q9KJX5); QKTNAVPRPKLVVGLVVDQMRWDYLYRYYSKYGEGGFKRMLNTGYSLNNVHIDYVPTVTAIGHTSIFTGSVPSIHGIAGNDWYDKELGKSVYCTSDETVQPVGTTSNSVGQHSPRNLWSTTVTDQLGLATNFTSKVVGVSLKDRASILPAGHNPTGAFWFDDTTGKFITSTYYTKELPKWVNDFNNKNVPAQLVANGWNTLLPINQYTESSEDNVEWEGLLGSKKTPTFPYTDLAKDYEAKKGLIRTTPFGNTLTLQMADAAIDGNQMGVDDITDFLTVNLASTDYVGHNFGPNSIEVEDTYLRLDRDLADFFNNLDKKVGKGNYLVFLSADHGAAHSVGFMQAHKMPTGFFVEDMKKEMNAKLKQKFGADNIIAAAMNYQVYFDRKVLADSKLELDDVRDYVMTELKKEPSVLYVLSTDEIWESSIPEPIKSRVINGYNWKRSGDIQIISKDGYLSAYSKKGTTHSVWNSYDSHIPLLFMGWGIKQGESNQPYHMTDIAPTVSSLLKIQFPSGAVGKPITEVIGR
Variant | oxyanion analog dissociation constant
G488V | 1.56 µM
L305G | 2 µM
I204G | 2.17 µM
K38G | 1.72 µM
N315V | 1.98 µM
A500V | 2.37 µM
Y32G | 1.53 µM
K432V | 2.07 µM

Series 2
Target: CCNB3, cyclin fold, Cln2 fusion (human)
Method: yeast growth competition, sequencing
Matrix: yeast
Setting: weak parent motif
Reference: not given
Direction: higher = stronger binding
Starting sequence: viral docking peptide; PGASRRLFGSSAD; partner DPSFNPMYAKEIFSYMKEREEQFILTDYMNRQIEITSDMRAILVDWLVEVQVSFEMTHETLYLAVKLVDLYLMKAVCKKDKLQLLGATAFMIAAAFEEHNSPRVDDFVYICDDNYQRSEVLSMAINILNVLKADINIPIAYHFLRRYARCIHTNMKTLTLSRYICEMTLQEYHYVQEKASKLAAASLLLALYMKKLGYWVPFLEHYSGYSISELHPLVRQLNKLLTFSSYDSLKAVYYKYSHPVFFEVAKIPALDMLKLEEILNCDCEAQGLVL
Variant | normalised enrichment score
PGASRALFGSSAD [R6A] | -0.279
PGASRRAFGSSAD [L7A] | -0.212
PGAARRLFGSSAD [S4A] | 0.3
PGASRRLFGSSAA [D13A] | 0.184
PGASARAFGSSAD [R5A L7A] | 0.171
PGASRRLFGASAD [S10A] | -0.131
PGASRRLFGSAAD [S11A] | 0.321
PGASRRLLGSSAD [F8L] | 0.464

Other studies, line by line
SMILES | target or system | assay | test system | setting | scale | endpoint | result
C[C@@H]1CN(c2cc(-c3n[nH]c4ccc(OC5(C)CC5)cc34)ncn2)C[C@H](C)O1 | SLC6A3 (Homo sapiens, UniProt Q01959) | ligand displacement |  | 10 µM |  | inhibition | -24.4%
O=C(O)c1ccc(N2C(=O)/C(=C\c3ccc(-c4ccc([N+](=O)[O-])cc4)o3)C=C2c2ccccc2)cc1 | Vero E6 | cytotoxicity, imaging |  |  |  | CC50 | 12.8 µM
CN[C@@H]1C[C@H]2O[C@@](C)([C@@H]1OC)n1c3ccccc3c3c4c(c5c6ccccc6n2c5c31)C(=O)NC4 | normal-adjacent organoid sample E | CellTiter-Glo |  | 1 µM, replicate mean | reference: DMSO | viability | 1.1%
CCN(CC)C(=O)c1ccc(C2=CC3(CCNCC3)Oc3cccc(O)c32)cc1 | Delta-type opioid receptor, with Gi1 (OPRD1, Homo sapiens, UniProt P41143) |  | human cells |  |  | EC50 | 47.6 nM

Excerpt of the above (series 2):
Variant | normalised enrichment score
PGASRRLFGSSAA [D13A] | 0.184
PGASARAFGSSAD [R5A L7A] | 0.171
PGASRRLFGASAD [S10A] | -0.131
